Results of several laboratories.
Each line is one published result; not all experiments were run side by side. ± marks the error that the study gave.

`CC[C@H](C)[C@@H]1NC(=O)[C@H](Cc2ccc(O)cc2)NC(=O)CCCSC[C@@H](C(=O)N(CC(=O)N[C@@H](CC(C)C)C(=O)NCC(N)=O)Cc2ccc(F)cc2)NC(=O)[C@H](CC(N)=O)NC(=O)[C@H](CCC(N)=O)NC1=O` has a deaths of 0% (human; intranasal, 400 µg single dose).
The radioactivity uptake of `N#[11C]c1ccc(-c2csc(NN=C3CCCC3)n2)cc1` is reported as 1.15 ± 0.03 %ID/g (C57BL/6 mice, male, muscle; intravenous, 3 MBq, 15 min).
Under “total volume of distribution”, `CN1Cc2cc(Cl)ccc2-n2c(nnc2C2CCN(c3cccc([18F])n3)CC2)C1` is recorded as 0.89 ± 0.31 mL/cm3 (PET two-tissue compartment model; rhesus monkey, occipital cortex; intravenous, dose not given, 60 min scan, baseline scan).
For `O=C(O)/C=C\c1ccc2occc2c1O[C@@H]1O[C@H](CO)[C@@H](O)[C@H](O)[C@H]1O`, the accuracy was 99.1% (post-procedure stability; rat plasma; 8 ng/mL, 1 h, room temperature).
For `CC(=O)NCCCC[C@@H]1NC(=O)[C@H](Cc2c[nH]c3c(C)cccc23)NC(=O)[C@H]([C@@H](C)O)NC(=O)[C@H](CC(N)=O)NC(=O)[C@@H](NC(C)=O)C(C)(C)SSC(C)(C)[C@@H](C(=O)N[C@@H](Cc2ccc(OCCN)cc2)C(=O)N[C@@H](Cc2ccc3ccccc3c2)C(=O)NC2(C(=O)N[C@@H](CCC(=O)O)C(=O)N[C@@H](CC(N)=O)C(=O)N[C@@H](Cc3cccnc3)C(=O)N(C)CC(N)=O)CCOCC2)NC1=O`, “apparent clearance CL/F” read 5210 ± 1830 L/h (human; oral, 25 mg multiple doses, day 10).
`CCCCCCCCCCCCCCCC(=O)N[C@@H](CCC(=O)NCCOCCOCCC(=O)NCCOCCOCCC(=O)NCCCC[C@H](NC(=O)[C@H](CC(=O)O)NC(=O)[C@H](CC(C)C)NC(=O)[C@H](Cc1ccc(O)cc1)NC(=O)[C@H](CCCCN)NC(=O)[C@H](CO)NC(=O)[C@H](Cc1ccc(O)cc1)NC(=O)[C@H](CC(=O)O)NC(=O)[C@H](CO)NC(=O)[C@@H](NC(=O)[C@H](Cc1ccccc1)NC(=O)[C@@H](NC(=O)CNC(=O)[C@H](CCC(N)=O)NC(=O)[C@@H](CO)NC(=O)[C@@H](N)Cc1c[nH]cn1)[C@@H](C)O)[C@@H](C)O)C(=O)N[C@@H](CCCNC(=N)N)C(=O)N[C@@H](CCCNC(=N)N)C(=O)N[C@@H](C)C(=O)N[C@@H](CCC(N)=O)C(=O)N[C@@H](CC(=O)O)C(=O)N[C@@H](Cc1ccccc1)C(=O)N[C@H](C(=O)N[C@@H](CCC(N)=O)C(=O)N[C@@H](Cc1c[nH]c2ccccc12)C(=O)N[C@@H](CC(C)C)C(=O)N[C@@H](CC(C)C)C(=O)N[C@@H](CC(N)=O)C(=O)N[C@H](C(=O)NCC(=O)NCC(=O)N1CCC[C@H]1C(=O)N[C@@H](CO)C(=O)N[C@@H](CO)C(=O)NCC(=O)N[C@@H](C)C(=O)N1CCC[C@H]1C(=O)N1CCC[C@H]1C(=O)N1CCC[C@H]1C(=O)N[C@@H](CO)C(N)=O)[C@@H](C)O)C(C)C)C(=O)O` has a urea of 5.2 ± 1.13 mmol/L (rhesus monkey, male; subcutaneous, 300 µg/kg once daily, 28 days).
Under “acute toxic concentration”, `CC(C)C[C@H](NC(=O)[C@H](Cc1ccc(O)cc1)NC(=O)[C@H](Cc1c[nH]cn1)NC(=O)[C@H](CCCCN)NC(=O)[C@H](CC(C)C)NC(=O)[C@H](C)NC(=O)[C@H](CC(C)C)NC(=O)[C@H](CCCCN)NC(=O)CNC(=O)[C@@H](NC(=O)[C@@H](NC(=O)[C@H](CCCCN)NC(=O)[C@@H](NC(=O)[C@H](CCC(=O)O)NC(=O)[C@H](C)NC(=O)[C@H](CCCCN)NC(=O)[C@H](CCCCN)NC(=O)[C@H](CC(C)C)NC(=O)[C@H](CC(C)C)NC(=O)[C@@H](NC(=O)[C@H](CCCNC(=N)N)NC(=O)[C@H](Cc1c[nH]c2ccccc12)NC(=O)CN)[C@@H](C)O)C(C)C)[C@@H](C)O)C(C)C)C(N)=O` is recorded as 25 µM (zebrafish embryos 28 hpf, E3 medium; 1 h).
For `CSCC[C@H](N)C(=O)N[C@@H](C)C(=O)N[C@@H](Cc1c[nH]c2ccccc12)C(=O)N[C@@H](Cc1c[nH]cn1)C(=O)N[C@@H](CC(=O)O)C(=O)N[C@@H](CC(=O)O)C(=O)N[C@@H](CCC(=O)O)C(=O)N[C@@H](CCC(=O)O)C(=O)N[C@@H](Cc1ccccc1)C(=O)N[C@@H](C)C(=O)N[C@@H](CCCNC(=N)N)C(=O)N[C@@H](CCCNC(=N)N)C(=O)N[C@@H](CCCNC(=N)N)C(=O)N[C@@H](CCCNC(=N)N)C(=O)NCCCCCC(=O)NCCCCC(NC(=O)CCCCCNC(=O)[C@H](CCCNC(=N)N)NC(=O)[C@H](CCCNC(=N)N)NC(=O)[C@H](CCCNC(=N)N)NC(=O)[C@H](CCCNC(=N)N)NC(=O)[C@H](C)NC(=O)[C@H](Cc1ccccc1)NC(=O)[C@H](CCC(=O)O)NC(=O)[C@H](CCC(=O)O)NC(=O)[C@H](CC(=O)O)NC(=O)[C@H](CC(=O)O)NC(=O)[C@H](Cc1c[nH]cn1)NC(=O)[C@H](Cc1c[nH]c2ccccc12)NC(=O)[C@H](C)NC(=O)[C@@H](N)CCSC)C(=O)NCCCCC(NC(=O)C(CCCCNC(=O)CCCCCNC(=O)[C@H](CCCNC(=N)N)NC(=O)[C@H](CCCNC(=N)N)NC(=O)[C@H](CCCNC(=N)N)NC(=O)[C@H](CCCNC(=N)N)NC(=O)[C@H](C)NC(=O)[C@H](Cc1ccccc1)NC(=O)[C@H](CCC(=O)O)NC(=O)[C@H](CCC(=O)O)NC(=O)[C@H](CC(=O)O)NC(=O)[C@H](CC(=O)O)NC(=O)[C@H](Cc1c[nH]cn1)NC(=O)[C@H](Cc1c[nH]c2ccccc12)NC(=O)[C@H](C)NC(=O)[C@@H](N)CCSC)NC(=O)CCCCCNC(=O)[C@H](CCCNC(=N)N)NC(=O)[C@H](CCCNC(=N)N)NC(=O)[C@H](CCCNC(=N)N)NC(=O)[C@H](CCCNC(=N)N)NC(=O)[C@H](C)NC(=O)[C@H](Cc1ccccc1)NC(=O)[C@H](CCC(=O)O)NC(=O)[C@H](CCC(=O)O)NC(=O)[C@H](CC(=O)O)NC(=O)[C@H](CC(=O)O)NC(=O)[C@H](Cc1c[nH]cn1)NC(=O)[C@H](Cc1c[nH]c2ccccc12)NC(=O)[C@H](C)NC(=O)[C@@H](N)CCSC)C(N)=O` (some centres unmarked), “mean tissue distribution” read 5.87% (C57BL/6 mouse female, spine; dose not given, 6 h; relative to: total).
For `CC(C)C[C@H](NC(=O)[C@H](CCCNC(=N)N)NC(=O)[C@H](Cc1ccccc1)NC(=O)[C@H](Cc1ccccc1)NC(=O)[C@@H](N)[C@@H](C)O)C(=O)N[C@@H](Cc1ccccc1)C(=O)N[C@@H](CC(N)=O)C(=O)N[C@@H](CCCNC(=N)N)C(=O)N[C@@H](C)C(=O)N[C@@H](CCCCN)C(=O)N[C@@H](CCCNC(=N)N)C(=O)N[C@@H](Cc1c[nH]cn1)C(=O)N[C@@H](Cc1c[nH]cn1)C(=O)NCC(=O)N[C@@H](Cc1ccc(O)cc1)C(=O)N[C@@H](CCCCN)C(=O)N[C@@H](CCCNC(=N)N)C(=O)N[C@@H](CCCCN)C(=O)N[C@@H](Cc1ccccc1)C(=O)N[C@@H](Cc1c[nH]cn1)C(=O)O`, the peptide concentration was 0.86 mg/mL (HPLC-UV; human saliva; 1 h, 37 °C, together with: initial 1 mg/mL).
The tissue uptake of `CC[C@H](C)[C@H](NC(=O)[C@H](CCCCN)NC(=O)CNC(=O)[C@H](CC(C)C)NC(=O)[C@H](Cc1ccccc1)NC(=O)[C@H](CCCCN)NC(=O)[C@H](CO)NC(=O)[C@H](Cc1ccccc1)NC(=O)[C@H](Cc1c[nH]c2ccccc12)NC(=O)[C@H](CCC(N)=O)NC(=O)[C@@H](NC(=O)[C@H](Cc1ccccc1)NC(=O)CCCCCNC(=O)CN1CCN(CC(=O)O)CCN(CC(=O)O)CCN(CC(=O)O)CC1)C(C)C)C(=O)N[C@@H](CCC(=O)O)C(=O)N1CCC[C@H]1C(=O)N[C@@H](CC(=O)O)C(=O)N[C@H](C(=O)N[C@@H](CO)C(=O)N[C@@H](CCC(N)=O)C(=O)N[C@H](C(=O)N[C@@H](CCC(N)=O)C(=O)N[C@@H](CC(=O)O)C(=O)N1CCC[C@H]1C(=O)N[C@@H](CC(N)=O)C(=O)N[C@@H](CC(=O)O)C(=O)N[C@@H](CCC(N)=O)C(=O)N[C@@H](Cc1ccc(O)cc1)C(=O)N[C@@H](CCC(=O)O)C(=O)N1CCC[C@H]1C(=O)N[C@@H](Cc1ccccc1)C(=O)O)C(C)C)C(C)C` [copper-64 labelled] is reported as 21.6 ± 1.6 %ID/g (C57BL/6 mice, male, tumour-free, liver; 24 h).
With `CCN(CCCCOc1ccc(CCC(=O)N2CCC(Cc3ccccc3)CC2)cc1OC)Cc1ccccc1` the excreted amount was 2020 ± 352 ng (Sprague-Dawley rats, both sexes, urine; oral gavage, 25 mg/kg, 0 to 6 h).
With `CC(C)[C@H](NC(=O)[C@@H](NC(=O)[C@H](CCCNC(=N)N)NC(=O)[C@H](CCCNC(=N)N)NC(=O)[C@H](CCCNC(=N)N)NC(=O)[C@H](CCC(N)=O)NC(=O)[C@H](CCCNC(=N)N)NC(=O)[C@H](CCCNC(=N)N)NC(=O)[C@H](CCCCN)NC(=O)[C@H](CCCCN)NC(=O)[C@H](CCCNC(=N)N)NC(=O)CN)[C@@H](C)O)C(=O)N[C@H](C(=O)N[C@@H](CO)C(=O)N1CCC[C@H]1C(=O)O)[C@@H](C)O` the organ weight was 0.088 ± 0.024 g (ICR mice, male, spleen; intranasal, 20 mg/kg daily, 4 weeks).
Under “treatment-related AEs leading to death”, `COCC1CN(C2CCN(c3cc(OC)c(Nc4ncc(Br)c(Nc5ccc6c(c5P(C)(C)=O)OCCO6)n4)cc3C)CC2)C1` is recorded as 0% (EGFR-mutant NSCLC patients; oral, 10 mg once daily).
`O=C(c1cc(Cc2n[nH]c(=O)c3ccccc23)ccc1F)N1CC(CNC2CC2)C1` gave a Cmax of 5710 ng/mL (female Wistar Han rat; oral, 30 mg/kg, day 1).
With `C[C@H](O)[C@@H](NC(=O)[C@H]1CCCN1C(=O)[C@@H](CCCCN)NC(=O)[C@@H](CO)NC(=O)[C@@H](Cc1ccc(O)cc1)NC(=O)[C@@H](CC(N)=O)NC(=O)CCOCCOCCOCCNC(=O)CN1CCN(CC(=O)O)CCN(CC(=O)O)CCN(CC(=O)O)CC1)C(=O)N[C@H](CC(=O)O)C(=O)N[C@H](CCCNC(=N)N)C(=O)N[C@H](CCC(N)=O)C(=O)N[C@H](Cc1ccc(O)cc1)C(=O)N[C@H](Cc1c[nH]cn1)C(=O)N[C@H](Cc1ccccc1)C(N)=O` [copper-64 labelled] the tissue uptake was 1.44 ± 0.06 %ID/g (C57BL/6J mice, liver; intravenous, 1.85 MBq, 0.6667 h, radiolabelled).
`NC1CCN(C(=O)Oc2ccc(C3CCCC4(C3)OOC3(O4)C4CC5CC(C4)CC3C5)cc2)CC1` (racemic) gave a clearance of 147 mL/min/kg (male ICR mice, plasma; intravenous, 10 mg/kg).
`O=C1NC2(CC2)COc2ncc(F)cc2[C@H]2COCCN2c2ccn3ncc1c3n2`: “organ-to-brain weight ratio” 759 ± 150% (Sprague-Dawley rat, male, liver; oral, 10 mg/kg/day, 4 weeks, end of treatment).

Some of these lines once more:
`O=C1NC2(CC2)COc2ncc(F)cc2[C@H]2COCCN2c2ccn3ncc1c3n2`: “organ-to-brain weight ratio” 759 ± 150% (Sprague-Dawley rat, male, liver; oral, 10 mg/kg/day, 4 weeks, end of treatment).
`CC[C@H](C)[C@@H]1NC(=O)[C@H](Cc2ccc(O)cc2)NC(=O)CCCSC[C@@H](C(=O)N(CC(=O)N[C@@H](CC(C)C)C(=O)NCC(N)=O)Cc2ccc(F)cc2)NC(=O)[C@H](CC(N)=O)NC(=O)[C@H](CCC(N)=O)NC1=O` has a deaths of 0% (human; intranasal, 400 µg single dose).
